Measurements pooled from the literature.
Lines come from different studies, so protocols differ. ± marks the error that the study gave.
U2AF2: U2AF2 148-342 (Homo sapiens, UniProt P26368)
Chain of UniProt P26368 (whole entry, looked up): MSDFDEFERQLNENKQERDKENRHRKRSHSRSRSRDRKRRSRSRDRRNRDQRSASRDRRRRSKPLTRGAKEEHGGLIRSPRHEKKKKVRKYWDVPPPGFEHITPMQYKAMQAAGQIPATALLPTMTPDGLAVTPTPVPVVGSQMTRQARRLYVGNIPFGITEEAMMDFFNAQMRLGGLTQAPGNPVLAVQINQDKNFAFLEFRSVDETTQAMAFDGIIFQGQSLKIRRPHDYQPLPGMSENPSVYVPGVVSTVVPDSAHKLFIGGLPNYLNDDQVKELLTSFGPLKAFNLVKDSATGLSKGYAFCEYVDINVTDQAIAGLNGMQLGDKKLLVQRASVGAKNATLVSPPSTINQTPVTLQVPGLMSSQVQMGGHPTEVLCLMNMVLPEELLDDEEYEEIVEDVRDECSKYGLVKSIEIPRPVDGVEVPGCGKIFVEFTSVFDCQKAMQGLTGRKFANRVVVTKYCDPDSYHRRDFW
TGM2: TGM2 2-687 (Homo sapiens, UniProt P21980)
Chain of UniProt P21980 (whole entry, looked up): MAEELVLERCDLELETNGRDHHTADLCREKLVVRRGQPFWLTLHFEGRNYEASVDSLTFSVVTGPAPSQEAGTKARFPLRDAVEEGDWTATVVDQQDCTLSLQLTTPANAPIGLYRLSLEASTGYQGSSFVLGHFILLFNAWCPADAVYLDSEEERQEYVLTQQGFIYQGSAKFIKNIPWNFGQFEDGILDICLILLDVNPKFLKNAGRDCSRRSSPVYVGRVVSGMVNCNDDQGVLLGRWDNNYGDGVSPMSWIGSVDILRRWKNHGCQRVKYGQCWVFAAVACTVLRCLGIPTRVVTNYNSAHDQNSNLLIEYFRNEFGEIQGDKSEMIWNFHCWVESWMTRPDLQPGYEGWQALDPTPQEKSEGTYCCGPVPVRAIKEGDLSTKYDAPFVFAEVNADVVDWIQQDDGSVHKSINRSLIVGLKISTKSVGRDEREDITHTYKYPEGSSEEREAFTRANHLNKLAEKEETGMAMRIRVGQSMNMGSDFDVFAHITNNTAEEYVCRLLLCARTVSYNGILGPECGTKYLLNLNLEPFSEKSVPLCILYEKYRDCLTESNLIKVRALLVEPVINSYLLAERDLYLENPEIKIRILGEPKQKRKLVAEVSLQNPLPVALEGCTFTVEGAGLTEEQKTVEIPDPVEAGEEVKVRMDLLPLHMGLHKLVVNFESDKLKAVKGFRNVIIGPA
APOBEC3A full length assumed E72A: APOBEC3A full length assumed E72A (Homo sapiens, UniProt P31941)
CBF1: CBF1 1-351 (Saccharomyces cerevisiae, UniProt P17106)
Chain of UniProt P17106 (whole entry, looked up): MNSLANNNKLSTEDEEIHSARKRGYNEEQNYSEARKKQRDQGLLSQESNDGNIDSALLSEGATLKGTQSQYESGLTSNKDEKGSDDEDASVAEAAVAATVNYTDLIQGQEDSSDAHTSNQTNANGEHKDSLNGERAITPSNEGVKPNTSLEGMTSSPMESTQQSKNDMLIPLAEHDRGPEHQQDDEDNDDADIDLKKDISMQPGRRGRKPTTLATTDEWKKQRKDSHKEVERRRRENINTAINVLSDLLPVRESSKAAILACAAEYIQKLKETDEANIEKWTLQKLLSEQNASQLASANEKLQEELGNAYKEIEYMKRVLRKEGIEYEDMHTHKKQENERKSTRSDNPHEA
SPT15 full length assumed: SPT15 full length assumed (Saccharomyces cerevisiae, UniProt P13393)
Chain of UniProt P13393 (whole entry, looked up): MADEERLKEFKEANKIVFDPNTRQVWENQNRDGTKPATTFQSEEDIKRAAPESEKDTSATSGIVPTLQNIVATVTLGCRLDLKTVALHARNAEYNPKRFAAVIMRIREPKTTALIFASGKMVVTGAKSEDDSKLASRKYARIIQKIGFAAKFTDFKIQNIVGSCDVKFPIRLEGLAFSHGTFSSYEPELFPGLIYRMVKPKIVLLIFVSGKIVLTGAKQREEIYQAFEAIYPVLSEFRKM
T1: TOA1/TOA2 1-286; 1-122 (Saccharomyces cerevisiae); chain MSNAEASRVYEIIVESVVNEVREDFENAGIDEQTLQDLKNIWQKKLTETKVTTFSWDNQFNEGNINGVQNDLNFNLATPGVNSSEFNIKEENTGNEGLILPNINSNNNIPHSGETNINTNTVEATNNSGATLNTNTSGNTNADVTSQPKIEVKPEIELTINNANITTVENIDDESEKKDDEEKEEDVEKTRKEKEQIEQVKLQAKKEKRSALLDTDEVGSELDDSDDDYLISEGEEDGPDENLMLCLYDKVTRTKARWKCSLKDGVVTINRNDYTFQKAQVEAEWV; chain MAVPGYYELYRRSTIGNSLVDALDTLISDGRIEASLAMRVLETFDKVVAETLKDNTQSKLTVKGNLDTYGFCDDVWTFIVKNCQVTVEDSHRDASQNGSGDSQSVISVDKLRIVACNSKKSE
B1: coatomer subunit delta, human; sequence looked up; chain VLLAAAVCTKAGKAIVSRQFVEMTRTRIEGLLAAFPKLMNTGKQHTFVETESVRYVYQPMEKLYMVLITTKNSNILEDLETLRLFSRVIPEYCRALEENEISEHCFDLIFAFDEIVALGYRENVNLAQIRTFTEMDSHEEKVFRAVRETQEREAKAEMRRKAKELQQARRDAERQGKKAPGFGGFGSSAVSGGSTAAMITETIIETDKPKVAPAPARPSGPSKALKLGAKGKEVDNFVDKLKSEGETIMSSSMGKRTSEATKMHAPPINMESVHMKIEEKITLTCGRDGGLQNMELHGMIMLRISDDKYGRIRLHVENEDKKGVQLQTHPNVDKKLFTAESLIGLKNPEKSFPVNSDVGVLKWRLQTTEESFIPLTINCWPSESGNGCDVNIEYELQEDNLELNDVVITIPLPSGVGAPVIGEIDGEYRHDSRRNTLEWCLPVIDAKNKSGSLEFSIAGQPNDFFPVQVSFVSKKNYCNIQVTKVTQVDGNSPVRFSTETTFLVDKYEIL
B2: human ribophorin II; sequence looked up; chain LTPTHYLTKHDVERLKASLDRPFTNLESAFYSIVGLSSLGAQVPDAKKACTYIRSNLDPSNVDSLFYAAQASQALSGCEISISNETKDLLLAAVSEDSSVTQIYHAVAALSGFGLPLASQEALSALTARLSKEETVLATVQALQTASHLSQQADLRSIVEEIEDLVARLDELGGVYLQFEEGLETTALFVAATYKLMDHVGTEPSIKEDQVIQLMNAIFSKKNFESLSEAFSVASAAAVLSHNRYHVPVVVVPEGSASDTHEQAILRLQVTNVLSQPLTQATVKLEHAKSVASRATVLQKTSFTPVGDVFELNFMNVKFSSGYYDFLVEVEGDNRYIANTVELRVKISTEVGITNVDLSTVDKDQSIAPKTTRVTYPAKAKGTFIADSHQNFALFFQLVDVNTGAELTPHQTFVRLHNQKTGQEVVFVAEPDNKNVYKFELDTSERKIEFDSASGTYTLYLIIGDATLKNPILWNVADVVIKFPEEEAPSTVLSQNLFTPKQEIQHLFREPEKRPPTVVSNTFTALILSPLLLLFALWIRIGANVSNFTFAPSTIIFHLGHAAMLGLMYVYWTQLNMFQTLKYLAILGSVTFLAGNRMLAQQAVKRTAH
Chain of UniProt P07270 (whole entry, looked up): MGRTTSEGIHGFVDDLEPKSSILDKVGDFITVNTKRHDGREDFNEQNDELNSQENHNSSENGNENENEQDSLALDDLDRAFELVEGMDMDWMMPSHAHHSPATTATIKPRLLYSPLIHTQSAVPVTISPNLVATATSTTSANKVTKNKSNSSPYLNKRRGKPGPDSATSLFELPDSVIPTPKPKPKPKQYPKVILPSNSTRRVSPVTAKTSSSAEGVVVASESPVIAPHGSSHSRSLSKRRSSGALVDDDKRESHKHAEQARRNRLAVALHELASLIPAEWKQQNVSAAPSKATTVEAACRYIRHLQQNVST
Chain of UniProt O61735 (whole entry, looked up): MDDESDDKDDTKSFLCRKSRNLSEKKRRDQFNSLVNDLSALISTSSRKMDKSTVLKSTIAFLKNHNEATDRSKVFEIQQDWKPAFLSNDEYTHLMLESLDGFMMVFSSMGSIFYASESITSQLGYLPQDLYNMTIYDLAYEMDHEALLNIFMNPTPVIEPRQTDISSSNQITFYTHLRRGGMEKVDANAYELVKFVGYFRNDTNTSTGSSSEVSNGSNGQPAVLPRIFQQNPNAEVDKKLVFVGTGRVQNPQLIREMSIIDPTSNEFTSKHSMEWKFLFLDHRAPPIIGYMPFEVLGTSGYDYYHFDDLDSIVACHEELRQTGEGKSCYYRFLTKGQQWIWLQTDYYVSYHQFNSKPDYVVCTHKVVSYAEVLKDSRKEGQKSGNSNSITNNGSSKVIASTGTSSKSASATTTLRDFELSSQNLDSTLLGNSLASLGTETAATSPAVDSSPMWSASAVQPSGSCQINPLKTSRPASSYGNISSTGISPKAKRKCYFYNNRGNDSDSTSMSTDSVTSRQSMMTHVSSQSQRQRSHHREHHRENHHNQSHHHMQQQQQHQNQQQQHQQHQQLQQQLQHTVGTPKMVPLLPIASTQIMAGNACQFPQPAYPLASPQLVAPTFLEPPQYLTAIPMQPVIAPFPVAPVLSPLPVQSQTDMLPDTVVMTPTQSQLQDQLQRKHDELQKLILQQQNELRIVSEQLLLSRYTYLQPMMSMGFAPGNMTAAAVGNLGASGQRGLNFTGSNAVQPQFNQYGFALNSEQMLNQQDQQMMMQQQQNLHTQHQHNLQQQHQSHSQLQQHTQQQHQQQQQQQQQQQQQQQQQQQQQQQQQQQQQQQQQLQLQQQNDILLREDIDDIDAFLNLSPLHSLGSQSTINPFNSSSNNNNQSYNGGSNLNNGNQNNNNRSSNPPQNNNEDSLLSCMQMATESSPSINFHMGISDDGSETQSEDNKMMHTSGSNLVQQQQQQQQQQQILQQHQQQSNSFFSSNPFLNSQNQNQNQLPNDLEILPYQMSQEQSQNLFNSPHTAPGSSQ
Chain of UniProt P29055 (whole entry, looked up): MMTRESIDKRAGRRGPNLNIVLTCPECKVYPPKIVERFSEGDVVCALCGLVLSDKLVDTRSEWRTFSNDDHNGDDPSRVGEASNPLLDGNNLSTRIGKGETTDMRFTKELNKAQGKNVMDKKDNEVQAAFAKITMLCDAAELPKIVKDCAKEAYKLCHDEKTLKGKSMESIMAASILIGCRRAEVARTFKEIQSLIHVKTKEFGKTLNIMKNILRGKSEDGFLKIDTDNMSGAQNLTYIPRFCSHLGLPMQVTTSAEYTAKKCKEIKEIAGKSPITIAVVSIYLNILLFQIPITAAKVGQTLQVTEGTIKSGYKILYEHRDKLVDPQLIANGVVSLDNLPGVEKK

Substance	tested on	assay	test system	setting	how to read	measurement	value
UUUUAAAUU (ssRNA)	U2AF2	sequencing of bound RNA	RNA	motif only		Kd	1.54 µM
GGGTTGCGGCCGCTTGGG (dsDNA; blunt, 5'-phosphate)	PARP1 full length assumed W589A (Homo sapiens, UniProt P09874)	stopped-flow fluorescence anisotropy	double-stranded DNA, one strand shown		relative to: wild type, lower = weaker affinity	relative affinity	1.6 fold
GGGAGCAGGAGAGAGGUCAGAUGGCGGAGAUUCUGAGGGUUCUCCUGUUCCAGCCUAUGCGUGCUAGUGUGA (ssRNA; 2'-fluoro pyrimidines)	TGM2	SPR	RNA	added: MgCl2 5 mM	higher = more binding	relative binding	116 RU
TGGATCAATCGAGAATTCCGCGCAAGTGGTATGGATCAAGTCAATCGGTCC (dsDNA; 5'-amino-C6 primer)	T1, TOA1/TOA2 1-286; 1-122 (Saccharomyces cerevisiae)	array	double-stranded DNA, one strand shown	TFIIA alone		Kd	0.0461 ± 0.0108 µM
AUUAUGUCGUUGGAUUUA (mixed DNA/RNA; single-stranded, dC at 8, rest RNA)	APOBEC3A full length assumed E72A	competitive fluorescence polarization				IC50	23 ± 8 µM
B1 (coatomer subunit delta, human)	CYB5R4 knockout human cells	PP4 interaction, 3xFLAG-PP4C IP-MS		concentration not given	relative to: CYB5R4 KO over parental	log2 fold change	0.15
GGGAGCAGGAGAGAGGUCAGAUGAAACGAGAGAUGUAGCCUUUCUCGAAUUCACCUAUGCGUGCUAGUGUGA (ssRNA; 2'-fluoro pyrimidines)	TGM2	SPR	RNA	added: MgCl2 5 mM	higher = more binding	relative binding	-7.7 RU
CAATACACTGTTATCAGACACACGTGGCGAGCTACTCGTTCGGTTATCCGGCGGTATGAC (dsDNA)	CBF1	MITOMI	double-stranded DNA, one strand shown	not purified		Kd	0.193 ± 0.009 µM
GGGAGCAGGAGAGAGGUCAGAUGUUUAGGUAUUACGAGAGAUGUGGAUAUCGACCUAUGCGUGCUAGUGUGA (ssRNA; 2'-fluoro pyrimidines)	TGM2	SPR	RNA	added: MgCl2 5 mM	higher = more binding	relative binding	38.1 RU
TCCTGAAGGGGCACCTATAAAAGGTCCTATCGTCGTCAAGTCAATCGGTCC (dsDNA; 5'-amino-C6 primer)	SPT15 full length assumed	array	double-stranded DNA, one strand shown	TBP alone		Kd	0.00181 ± 6e-05 µM
GGGAGCAGGAGAGAGGUCAGAUGAACGAGAGAUGGUAGGCCUCCAAGCUCACGCCUAUGCGUGCUAGUGUGA (ssRNA; 2'-fluoro pyrimidines)	TGM2	SPR	RNA	added: MgCl2 5 mM	higher = more binding	relative binding	40.4 RU
CAATACACTGTTATCAGACACAGCTGTCGAGCTACTCGTTCGGTTATCCGGCGGTATGAC (dsDNA)	PHO4 1-312 (Saccharomyces cerevisiae, UniProt P07270)	MITOMI	double-stranded DNA, one strand shown	not purified		Kd	1.23 ± 0.112 µM
GGGAGCAGGAGAGAGGUCAGAUGGUACUUUAGACAACUGAGGGUUCUCUUAUUCCUAUGCGUGCUAGUGUGA (ssRNA; 2'-fluoro pyrimidines)	TGM2	SPR	RNA	added: MgCl2 5 mM	higher = more binding	relative binding	134 RU
TAAATATTCTTTCCTTATACATTAGGACCTTTGCATCAAGTCAATCGGTCC (dsDNA; 5'-amino-C6 primer)	SPT15 full length assumed	array	double-stranded DNA, one strand shown	TBP alone		Kd	0.0192 ± 0.00176 µM
CCGCCGCTCACGTGGCGAACT (dsDNA)	Clk 1-71 (Drosophila melanogaster, UniProt O61735)	BLI	double-stranded DNA, one strand shown			K1/2	270 nM
DNA 1 GATTTAATATTAACTTATATATGTAAACTTATTTATCAATTCAATCGGTCC / DNA 2 GGACCGATTGACTTGATAAATAAGTTTACATATATAAGTTAATATTAAATC (dsDNA; 5'-amino-C6 primer)	SUA7 full length assumed (Saccharomyces cerevisiae, UniProt P29055)	array	double-stranded DNA	TFIIB alone		Kd	0.00171 ± 0.00039 µM
AUUUACAUU (ssRNA)	U2AF2	sequencing of bound RNA	RNA	motif only		Kd	11.7 µM
B2 (human ribophorin II)	CYB5R4 knockout human cells	PP4 interaction, 3xFLAG-PP4C IP-MS		concentration not given	relative to: CYB5R4 KO over parental	log2 fold change	-0.6

Substance	tested on	assay	test system	setting	how to read	measurement	value
GGAUUCAAG (ssRNA)	U2AF2	sequencing of bound RNA	RNA	motif only		Kd	6.4 µM
GGGAGCAGGAGAGAGGUCAGAUGGUCGAGAUUUUGAGGGUUCUCCGCUCCAGGCCUAUGCGUGCUAGUGUGA (ssRNA; 2'-fluoro pyrimidines)	TGM2	SPR	RNA	added: MgCl2 5 mM	higher = more binding	relative binding	85.1 RU
UAUUUCAUU (ssRNA)	U2AF2	sequencing of bound RNA	RNA	motif only		Kd	2.16 µM
CAATACACTGTTATCAGACACACGTGTAGAGCTACTCGTTCGGTTATCCGGCGGTATGAC (dsDNA)	CBF1	MITOMI	double-stranded DNA, one strand shown	not purified		Kd	0.364 ± 0.024 µM
insulin degludec			human	subcutaneous, 0.4 IU/kg, 2 FC level, single dose, reference formulation		AUC0−12	128 ± 33 ng·h/mL
GCUUUCCCU (ssRNA)	U2AF2	sequencing of bound RNA	RNA	motif only		Kd	2.59 µM
GGGAGCAGGAGAGAGGUCAGAUGUUAGGAGUUACGAGAGAUGUGGCAUGUGCCUAUGCGUGCUAGUGUGA (ssRNA; 2'-fluoro pyrimidines)	TGM2	SPR	RNA	added: MgCl2 5 mM	higher = more binding	relative binding	51.8 RU
AUUAUGUCGUUGGAUUUA (mixed DNA/RNA; single-stranded, dU at 7, dC at 8, rest RNA)	APOBEC3A full length assumed E72A	competitive fluorescence polarization				IC50	1.6 ± 0.2 µM
UGUUACGGU (ssRNA)	U2AF2	sequencing of bound RNA	RNA	motif only		Kd	1.09 µM
GTTCCTGAAGGGGGGGCTATAAAACGGGGTGGGGGTCAAGTCAATCGGTCC (dsDNA; 5'-amino-C6 primer)	SPT15 full length assumed	array	double-stranded DNA, one strand shown	TBP alone		Kd	0.00066 ± 2e-05 µM
GGGAGCAGGAGAGAGGUCAGAUGGUACGAGAUUCUGAGGGUUCUUUUUGCACCCUAUGCGUGCUAGUGUGA (ssRNA; 2'-fluoro pyrimidines)	TGM2	SPR	RNA	added: MgCl2 5 mM	higher = more binding	relative binding	135 RU
CTCAGGAATTCCTATAACGTAATGTGGAGCTCAGTTCAAGTCAATCGGTCC (dsDNA; 5'-amino-C6 primer)	SPT15 full length assumed	array	double-stranded DNA, one strand shown	TBP alone		Kd	0.00133 ± 7e-05 µM
CAATACACTGTTATCAGACCCACGTGTCGAGCTACTCGTTCGGTTATCCGGCGGTATGAC (dsDNA)	CBF1	MITOMI	double-stranded DNA, one strand shown	not purified		Kd	0.139 ± 0.007 µM
CAAAUGUUG (ssRNA)	U2AF2	sequencing of bound RNA	RNA	motif only		Kd	8.47 µM
GAATTCCTGTAAAGTAATGTGGAGCTCCGTTCGTCTCAAGTCAATCGGTCC (dsDNA; 5'-amino-C6 primer)	SPT15 full length assumed	array	double-stranded DNA, one strand shown	TBP alone		Kd	0.0293 ± 0.0022 µM
CCAUGGAUU (ssRNA)	U2AF2	sequencing of bound RNA	RNA	motif only		Kd	5.91 µM
GTTCCTGAAGGGGGGGCTATAAACGGGGGTGGGGGTCAAGTCAATCGGTCC (dsDNA; 5'-amino-C6 primer)	SPT15 full length assumed	array	double-stranded DNA, one strand shown	TBP alone		Kd	0.00103 ± 4e-05 µM
AUUAUGUCGUUGGAUUUA (mixed DNA/RNA; single-stranded, dU at 7, rest RNA)	APOBEC3A full length assumed E72A	competitive fluorescence polarization				IC50	41 ± 24 µM
